# Results gathered from unrelated publications.
# Values joined by “and” are separate records of one study, mostly repeats; a detail may differ.
# Sequence of UniProt Q9UM07 (whole entry, looked up): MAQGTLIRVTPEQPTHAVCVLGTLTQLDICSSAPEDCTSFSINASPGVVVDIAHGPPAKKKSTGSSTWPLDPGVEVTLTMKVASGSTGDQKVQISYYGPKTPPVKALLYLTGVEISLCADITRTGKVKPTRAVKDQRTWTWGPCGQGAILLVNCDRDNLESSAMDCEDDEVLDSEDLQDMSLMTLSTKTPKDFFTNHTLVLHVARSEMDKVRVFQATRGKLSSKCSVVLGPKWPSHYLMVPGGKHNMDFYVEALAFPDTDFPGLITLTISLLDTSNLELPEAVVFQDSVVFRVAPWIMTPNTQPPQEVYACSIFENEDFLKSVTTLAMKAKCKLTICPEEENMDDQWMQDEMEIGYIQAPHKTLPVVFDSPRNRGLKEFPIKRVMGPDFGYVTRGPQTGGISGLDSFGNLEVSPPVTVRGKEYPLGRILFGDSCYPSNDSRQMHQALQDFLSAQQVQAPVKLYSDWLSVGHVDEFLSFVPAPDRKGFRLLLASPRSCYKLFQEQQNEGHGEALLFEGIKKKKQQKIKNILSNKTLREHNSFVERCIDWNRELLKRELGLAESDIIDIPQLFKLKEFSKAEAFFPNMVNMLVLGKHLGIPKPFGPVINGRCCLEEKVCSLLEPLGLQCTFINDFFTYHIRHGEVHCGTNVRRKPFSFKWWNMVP
# Sequence of UniProt P16234 (whole entry, looked up): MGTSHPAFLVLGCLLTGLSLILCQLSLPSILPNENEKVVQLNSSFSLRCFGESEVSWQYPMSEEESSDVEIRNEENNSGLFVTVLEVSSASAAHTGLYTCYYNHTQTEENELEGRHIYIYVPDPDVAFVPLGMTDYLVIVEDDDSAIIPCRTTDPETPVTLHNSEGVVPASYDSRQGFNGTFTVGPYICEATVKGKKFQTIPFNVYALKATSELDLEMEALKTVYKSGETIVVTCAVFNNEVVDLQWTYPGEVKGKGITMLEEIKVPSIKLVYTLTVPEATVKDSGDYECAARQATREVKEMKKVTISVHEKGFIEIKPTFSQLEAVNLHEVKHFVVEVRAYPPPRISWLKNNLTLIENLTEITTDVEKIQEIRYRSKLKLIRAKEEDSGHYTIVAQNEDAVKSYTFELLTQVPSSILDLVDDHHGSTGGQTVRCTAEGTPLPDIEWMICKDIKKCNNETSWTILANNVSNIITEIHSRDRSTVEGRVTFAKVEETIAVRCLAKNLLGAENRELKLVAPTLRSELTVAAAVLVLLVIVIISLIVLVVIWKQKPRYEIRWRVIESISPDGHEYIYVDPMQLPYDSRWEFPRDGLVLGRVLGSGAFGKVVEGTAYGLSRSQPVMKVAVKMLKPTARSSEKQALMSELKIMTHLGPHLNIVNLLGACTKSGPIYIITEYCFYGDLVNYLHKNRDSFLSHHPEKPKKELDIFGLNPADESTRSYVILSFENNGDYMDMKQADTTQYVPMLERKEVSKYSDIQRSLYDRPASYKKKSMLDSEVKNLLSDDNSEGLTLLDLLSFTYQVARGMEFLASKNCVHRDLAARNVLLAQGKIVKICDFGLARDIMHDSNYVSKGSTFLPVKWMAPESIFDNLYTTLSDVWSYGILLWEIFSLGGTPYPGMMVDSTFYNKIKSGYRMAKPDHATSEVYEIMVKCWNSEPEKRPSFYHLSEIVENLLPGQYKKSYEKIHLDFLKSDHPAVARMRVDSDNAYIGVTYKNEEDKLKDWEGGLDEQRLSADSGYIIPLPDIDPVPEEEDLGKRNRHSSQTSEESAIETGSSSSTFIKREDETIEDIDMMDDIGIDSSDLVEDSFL
# Sequence of UniProt Q8K1N1 (whole entry, looked up): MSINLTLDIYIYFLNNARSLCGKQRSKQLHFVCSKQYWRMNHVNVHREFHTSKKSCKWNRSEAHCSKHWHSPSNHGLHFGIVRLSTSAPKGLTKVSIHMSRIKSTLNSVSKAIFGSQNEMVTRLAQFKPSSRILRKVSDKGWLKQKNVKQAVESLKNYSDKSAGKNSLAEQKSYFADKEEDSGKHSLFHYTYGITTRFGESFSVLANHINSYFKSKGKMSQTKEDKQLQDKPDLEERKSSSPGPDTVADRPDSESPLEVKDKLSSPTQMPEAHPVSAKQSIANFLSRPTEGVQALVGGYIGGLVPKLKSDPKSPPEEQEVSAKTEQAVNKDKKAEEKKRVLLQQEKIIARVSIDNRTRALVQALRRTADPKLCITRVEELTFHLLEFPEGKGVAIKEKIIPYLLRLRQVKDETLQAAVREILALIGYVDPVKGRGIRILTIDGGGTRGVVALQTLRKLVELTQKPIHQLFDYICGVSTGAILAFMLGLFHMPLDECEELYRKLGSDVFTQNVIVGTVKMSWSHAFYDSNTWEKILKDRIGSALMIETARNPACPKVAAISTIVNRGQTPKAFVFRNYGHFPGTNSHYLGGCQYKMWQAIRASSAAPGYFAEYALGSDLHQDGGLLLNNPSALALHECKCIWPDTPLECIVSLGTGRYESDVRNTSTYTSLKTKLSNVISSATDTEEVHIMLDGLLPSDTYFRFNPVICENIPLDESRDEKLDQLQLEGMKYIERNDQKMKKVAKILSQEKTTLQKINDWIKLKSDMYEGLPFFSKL
# Sequence of UniProt Q9NYL2 (whole entry, looked up): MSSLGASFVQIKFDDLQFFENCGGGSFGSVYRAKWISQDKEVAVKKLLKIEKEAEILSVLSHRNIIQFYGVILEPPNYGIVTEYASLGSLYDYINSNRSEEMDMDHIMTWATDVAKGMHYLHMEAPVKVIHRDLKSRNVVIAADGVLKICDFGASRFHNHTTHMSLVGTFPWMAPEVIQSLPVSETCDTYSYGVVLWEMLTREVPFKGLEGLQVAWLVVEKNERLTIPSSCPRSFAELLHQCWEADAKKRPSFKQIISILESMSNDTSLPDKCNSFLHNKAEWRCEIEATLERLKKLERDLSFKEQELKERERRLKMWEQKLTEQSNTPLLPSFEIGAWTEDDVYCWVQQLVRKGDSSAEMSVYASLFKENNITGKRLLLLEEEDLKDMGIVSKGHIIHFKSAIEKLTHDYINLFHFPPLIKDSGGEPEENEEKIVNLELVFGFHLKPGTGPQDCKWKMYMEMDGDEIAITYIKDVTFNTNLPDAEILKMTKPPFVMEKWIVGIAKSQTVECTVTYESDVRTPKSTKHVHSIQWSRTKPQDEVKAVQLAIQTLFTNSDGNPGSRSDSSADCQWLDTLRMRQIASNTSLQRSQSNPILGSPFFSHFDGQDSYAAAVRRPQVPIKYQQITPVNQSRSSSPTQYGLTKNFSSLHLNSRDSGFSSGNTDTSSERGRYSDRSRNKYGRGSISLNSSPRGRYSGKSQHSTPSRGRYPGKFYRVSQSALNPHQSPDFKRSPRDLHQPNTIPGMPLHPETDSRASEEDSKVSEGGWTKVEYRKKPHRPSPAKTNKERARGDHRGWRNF
# Sequence of UniProt P54764 (whole entry, looked up): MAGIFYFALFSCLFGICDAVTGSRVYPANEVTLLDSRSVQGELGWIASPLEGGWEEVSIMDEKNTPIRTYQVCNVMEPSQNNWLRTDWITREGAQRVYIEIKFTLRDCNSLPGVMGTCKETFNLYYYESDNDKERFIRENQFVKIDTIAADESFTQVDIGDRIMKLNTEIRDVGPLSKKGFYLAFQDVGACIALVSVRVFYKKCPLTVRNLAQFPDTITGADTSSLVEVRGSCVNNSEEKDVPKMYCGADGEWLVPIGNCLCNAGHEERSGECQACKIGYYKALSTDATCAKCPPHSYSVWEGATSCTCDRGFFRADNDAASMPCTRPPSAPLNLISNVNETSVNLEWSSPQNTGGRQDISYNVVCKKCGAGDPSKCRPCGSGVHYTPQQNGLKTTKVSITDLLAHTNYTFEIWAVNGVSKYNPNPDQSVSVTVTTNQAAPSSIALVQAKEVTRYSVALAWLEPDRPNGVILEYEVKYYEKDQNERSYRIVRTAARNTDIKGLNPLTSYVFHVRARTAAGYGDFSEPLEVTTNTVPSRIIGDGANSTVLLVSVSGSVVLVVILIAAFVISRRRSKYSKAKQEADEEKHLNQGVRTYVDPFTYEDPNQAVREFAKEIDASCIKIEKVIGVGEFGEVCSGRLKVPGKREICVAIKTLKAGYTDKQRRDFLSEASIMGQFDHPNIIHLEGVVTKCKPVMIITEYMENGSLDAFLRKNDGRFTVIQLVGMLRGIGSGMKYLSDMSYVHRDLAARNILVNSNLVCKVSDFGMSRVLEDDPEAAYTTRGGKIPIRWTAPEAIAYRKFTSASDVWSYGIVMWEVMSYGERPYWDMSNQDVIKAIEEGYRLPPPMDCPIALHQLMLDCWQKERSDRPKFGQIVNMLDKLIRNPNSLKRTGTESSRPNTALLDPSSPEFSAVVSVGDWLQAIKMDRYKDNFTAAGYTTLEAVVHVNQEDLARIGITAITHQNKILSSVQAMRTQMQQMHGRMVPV
# Sequence of UniProt P37288 (whole entry, looked up): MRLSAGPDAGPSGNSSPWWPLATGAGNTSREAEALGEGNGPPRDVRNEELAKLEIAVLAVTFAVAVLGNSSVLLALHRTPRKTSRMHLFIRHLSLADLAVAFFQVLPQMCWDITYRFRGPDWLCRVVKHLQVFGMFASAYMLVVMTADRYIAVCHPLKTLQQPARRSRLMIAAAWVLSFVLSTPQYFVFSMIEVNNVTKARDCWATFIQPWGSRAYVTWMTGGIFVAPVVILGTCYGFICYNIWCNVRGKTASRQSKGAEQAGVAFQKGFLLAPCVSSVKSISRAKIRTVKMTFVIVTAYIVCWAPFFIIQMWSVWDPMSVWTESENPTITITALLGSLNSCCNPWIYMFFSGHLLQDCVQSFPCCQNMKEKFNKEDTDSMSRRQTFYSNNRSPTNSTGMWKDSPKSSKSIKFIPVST
SMILES,target,assay,system,conditions,scale,quantity,value
CCc1nnc(-c2c(OC)cc(-c3cnc4cc(-c5cnn(C)c5)ccn34)cc2OC)o1,"AVPR1A (Homo sapiens, UniProt P37288)","agonist radioligand, radioligand binding",,"10 µM, SafetyScreen44 V1a mean",lower = stronger displacement,remaining binding,97.1%
COc1ccccc1-c1n[nH]c2nc(N[C@H]3CC[C@H](NS(=O)(=O)CC(C)C)CC3)ncc12,"cyclin 9 (Leishmania donovani, UniProt A0A2D1QVA3)","competitor, bead pull-down competition",Leishmania donovani extract,0.4 µM,reference: vehicle,remaining binding,8%
O=C1NC(=O)c2c1c1cc(F)c[n+]3c1c1c2c2cc(O)ccc2[n]1[Ru-4]312([N]=C=S)[S+]3CC[S+]1CC[S+]2CC3 (centres unmarked),"RAF1 (Homo sapiens, UniProt P04049)",enzyme activity,,"100 nM, human enzyme, added: 10 µM ATP",reference: untreated,remaining activity,100%
CC(C)[C@H]1NC(=O)C[C@H]2/C=C/CCSSC[C@@H](NC1=O)C(=O)N[C@H](Cc1cccc3ccccc13)C(=O)NCC(=O)O2,"EPHA4 (Homo sapiens, UniProt P54764)","enzyme activity, inhibitor",,10 µM,,inhibition,1.4%
CS(C)(=O)=Nc1ccc(-c2ccc(-c3nc4cc(O[C@@H]5CO[C@H]6[C@@H]5OC[C@H]6O)[nH]c4cc3F)cc2)cc1,"PDGFRA (Homo sapiens, UniProt P16234)","enzyme activity, inhibitor",,10 µM,,inhibition,-6%
N[C@H](C(=O)N1CCCC1)C1CCN(c2nccc3c(-c4ncc(Cl)cc4Cl)cccc23)CC1,"PADI4 (Homo sapiens, UniProt Q9UM07)",thermal shift,,0.00953 µM,,melting temperature,53.2 °C and 53.5 °C
CN(C)[C@H]1C[C@@]23CC[C@@]4(O2)C(=CC[C@]2(C)[C@@H](c5ccc6ccncc6c5)CC[C@H]24)C=C3[C@@H](O)[C@@H]1O,"MAP3K20 (Homo sapiens, UniProt Q9NYL2)","ATP probe labelling, inhibitor, KiNativ profiling",,1 µM,,inhibition,-5.5%
CC(C)CC(O)(CC(C)C)c1cn(C(=O)N2CCCC2)nn1,"Pnpla8 (Mus musculus, UniProt Q8K1N1)","enzyme activity, inhibitor","mouse, brain","i.p., 0.8 mg/kg, 4 h, protein level",reference: vehicle,ratio of ratios,1.83

# Some of these lines once more:
SMILES,target,assay,system,conditions,scale,quantity,value
CN(C)[C@H]1C[C@@]23CC[C@@]4(O2)C(=CC[C@]2(C)[C@@H](c5ccc6ccncc6c5)CC[C@H]24)C=C3[C@@H](O)[C@@H]1O,"MAP3K20 (Homo sapiens, UniProt Q9NYL2)","ATP probe labelling, inhibitor, KiNativ profiling",,1 µM,,inhibition,-5.5%
